Measured values of several laboratories.
Every numbered part comes from another study and shows a few of its results, in no order.

Set 1 — technique: protein-binding microarray; form: double-stranded DNA, one strand shown; medium: in vitro; concentration: 2200 nM top; notes: 60-bp whole probe; together with: salmon DNA 0.4 mg/ml; relative to: random background probes; reading: higher = stronger binding; all sequences stand within: GCCTAGCAC … GTCTTGATTCGCTTGACGCTGCTG
Target: Interferon regulatory factor 7, full length, phosphomimetic (IRF7, Homo sapiens, UniProt Q92985, residues 1-503, S471D/S472D/S475D/S476D/S477D/S483D/S484D/S487D)
Construct (chain): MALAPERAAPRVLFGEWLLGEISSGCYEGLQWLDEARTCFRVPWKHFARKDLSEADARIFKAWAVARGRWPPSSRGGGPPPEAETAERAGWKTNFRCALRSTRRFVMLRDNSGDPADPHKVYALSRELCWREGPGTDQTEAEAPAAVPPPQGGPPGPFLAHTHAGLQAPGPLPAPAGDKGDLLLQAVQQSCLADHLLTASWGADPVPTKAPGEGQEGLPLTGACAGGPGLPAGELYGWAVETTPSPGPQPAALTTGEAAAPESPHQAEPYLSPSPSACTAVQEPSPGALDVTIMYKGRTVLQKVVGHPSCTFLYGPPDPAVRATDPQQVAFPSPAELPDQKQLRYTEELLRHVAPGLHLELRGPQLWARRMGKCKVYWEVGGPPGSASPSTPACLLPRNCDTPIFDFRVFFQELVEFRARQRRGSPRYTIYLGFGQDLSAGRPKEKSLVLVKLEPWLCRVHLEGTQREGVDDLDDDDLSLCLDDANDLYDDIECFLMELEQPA
Under “fitted relative affinity”, `TTAGATATCGGGACTGGTTTAGTGCTA` is recorded as 0.00159 z-score.
Under “fitted relative affinity”, `ACCACTCTTCCTTTACTTTCGTGCTAG` is recorded as 4.15 z-score.
For `CATCTCGGGCCGCCGGGCCGGTGCTAG`, “fitted relative affinity” read -0.499 z-score.
`TCATTTTTTTTTCTGATACTGTGCTAG`: “fitted relative affinity” 2.03 z-score.
`AAGAAGCTTCCTCTCTGCCAGTGCTAG` — result for “fitted relative affinity”: 0.559 z-score.
`GACGGACTCGGGTATCGGGACGTGCTA`: “fitted relative affinity” -0.301 z-score.
`TGAGATTTCAGTATCGATTAGTGCTAG` — result for “fitted relative affinity”: 0.61 z-score.
Under “fitted relative affinity”, `GACTGTTTCGGACTGGGGACGTGCTAG` is recorded as 2.5 z-score.

Set 2 — technique: RNA Bind-n-Seq; form: RNA; medium: in vitro; concentration: 365 nM; relative to: no-protein control; reading: higher = stronger binding
Target: RNA binding protein fox-1 homolog 2, RRM domain, GST-SBP tag (RBFOX2, Homo sapiens, UniProt O43251-10, residues 100-194)
Notes: natural RNA segment, single round, ends assumed
All sequences stand within: GGGAGUUCUACAGUCCGACGAUC … UGGAAUUCUCGGGUGCCAA
Construct (chain): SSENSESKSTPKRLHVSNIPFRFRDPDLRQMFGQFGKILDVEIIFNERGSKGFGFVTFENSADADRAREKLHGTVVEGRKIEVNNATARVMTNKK
For `UAAUGUGGCACCAUGCAGAUGUGACUUGAUUUGGCUGAGAGCUACCUUUCCUGAAGUAUGCACCCUAGAAAAGAAUUGUGUGCUAAUGCUUGUCAGAGCUGUGGCAGUAC`, “RBNS enrichment (R)” read 0.501.
For `CUGAUGGCUGGCAUUUUUAAUAUAGGCAGUGAAAGUGACUUUAGAAGCAUGGGAUGAAAUAGAGGGAAGAAGAGUUUUUAUUUUCUGGCCUUUAAAAAGUGCCUAGUAGG`, “RBNS enrichment (R)” read 1.54.
Under “RBNS enrichment (R)”, `CAAAGUUUAGAUCUACAUUCUUCAUUGUAUUUGCUGUUUCUUAAUUGGGCACACACAACUCCUGGUCAUGUCCCAGUUCAGCACCGAUCGCUAAGGCCGAUCCUGUAGAA` is recorded as 0.474.
`AGGCUGAGAGCUGAGCAGAGCACACUAGGCAGGGAAAGCCAUGUGGGUCUCCAGUCCUGUUUGCCUGAAUGCUCUGGGAUCUAUGCCUAGAGCAAGCCUGAAGACGGCCC`: “RBNS enrichment (R)” 0.39.
For `UGAACUUCCAUGAUUGAUCCUUGAUAUAAAUAAUAAAAGAAAAUAUUUAUGAUGAAAUAUUUUAAUUAGGUCAAUUAUCUAGAAUUACCUAGUUUUGUCUAUAUAUCUUU`, “RBNS enrichment (R)” read 1.58.
Under “RBNS enrichment (R)”, `CAGGUAGCAGUAAUAGAAAACAACCUCACACCAUUUUCACAAUGGCCGCCCAUCCUCGGGGACUGUGAGUGUCCUUGUCUUAGUCAAAGCACAUCUCCUACCAAAAUUGC` is recorded as 0.412.
For `UAAAUCCUUCAGGGGCGGGGACCGCCUUGCUCGGGAAGGAAGGUGCCAUGGCCUGCACCGUGGCGGUGGAAGAGAGCAUAGCACAUCACUACAACAACCAGAUCAGGACG`, “RBNS enrichment (R)” read 0.276.
Under “RBNS enrichment (R)”, `AAUCUUUUCUGGUUCUUUACAGUUUGUUGUUUUGUUUUGAUCCAAGCUUAGUUUGUUACUAUGUGUGAUUUAGCAUCUGUCGCACUUGUGUAAAUAUGGAGUAAGUAUUG` is recorded as 14.6.

Set 3 — mode: inhibitor; concentration: 20 µM
Target: Replicase polyprotein 1ab, nsp13 helicase (rep, Severe acute respiratory syndrome coronavirus 2, UniProt P0DTD1)
`O=C(Cc1ccccc1)Nc1nc2ccc(Cl)cc2c2nc(-c3ccco3)nn12` gave an inhibition of 4.53%.
For `O=C(/C=C/N1C[C@H]2C[C@@H]1CN2c1ccccn1)c1ccccc1O`, the inhibition was 6.26%.
The inhibition of `COc1ccc2[nH]c(-c3ccccc3)c(CCNC(C)=O)c2c1` is reported as -2.5%.
The inhibition of `NCc1cc(O)no1` is reported as 5.15%.
`N#C/C(=C\c1ccc(O)c(O)c1)C(N)=O` has an inhibition of 2.59%.
The inhibition of `O=C(O)C(O)c1ccccc1` (centres unmarked) is reported as -1.12%.
With `N=C(N)NCc1cccc(I)c1` the inhibition was 5.05%.
`OC[C@@H](O)CN1CCN(c2ccccc2)CC1` gave an inhibition of 6.86%.
The inhibition of `C#C[C@]1(OC(C)=O)CC[C@H]2[C@@H]3CCC4=CC(=O)CC[C@@H]4[C@H]3CC[C@@]21C` is reported as 2.19%.
`CC(=O)Nc1cccc(O)c1` gave an inhibition of 7.15%.
With `CCC/N=C1\S/C(=C\c2ccc(OC[C@H](O)CO)c(Cl)c2)C(=O)N1c1ccccc1C` the inhibition was 2.27%.
`O=c1ncnc2n([C@H]3O[C@@H](CO)[C@H](O)[C@@H]3O)[nH]cc1-2` (stereo in doubt) gave an inhibition of 9.86%.
The inhibition of `Cn1nc(-c2cccc(F)c2)n(C)c1=S` is reported as -15.8%.
For `C#C[C@]1(O)CC[C@H]2[C@@H]3CCc4cc(O)ccc4[C@H]3CC[C@@]21C`, the inhibition was 2.15%.
The inhibition of `Nc1nc(NCCNc2ncc(-n3ccnc3)c(-c3ccc(Cl)cc3Cl)n2)ccc1[N+](=O)[O-]` is reported as -1.29%.
The inhibition of `O=C(Nc1cnn2ccc(N3CCC[C@@H]3c3cc(F)ccc3F)nc12)N1CC[C@H](O)C1` is reported as 6.49%.
For `COc1ccc(CNC(=O)Nc2ncc([N+](=O)[O-])s2)cc1`, the inhibition was 9.66%.
With `COc1ccc(CC2NCCc3c2[nH]c2ccc(C)cc32)c(Cl)c1OC` (centres unmarked) the inhibition was 4.46%.
`CN1[C@@H]2CC[C@H]1C[C@@H](OC(=O)c1cc(Cl)cc(Cl)c1)C2` has an inhibition of -0.81%.
With `CS(=O)(=O)n1cc2c(n1)CN([C@H]1CO[C@H](c3cc(F)ccc3F)[C@@H](N)C1)C2` the inhibition was 0.03%.
`CNC(=O)c1ccc(-c2cnc3ncc(Cc4ccc5ncccc5c4)n3n2)cc1F` has an inhibition of 8.31%.
`O=C(NCCN1CCN(c2ncccn2)CC1)C12CC3CC(CC(C3)C1)C2` has an inhibition of 1.3%.
With `CN1CCOC(c2ccccc2)c2ccccc2C1` (centres unmarked) the inhibition was 6.15%.
With `Nc1ccc(S(=O)(=O)Nc2ccc(Cl)nn2)cc1` the inhibition was 2.05%.
For `Nc1ncn([C@@H]2O[C@H](CO)[C@@H](O)[C@H]2O)c(=O)n1`, the inhibition was -0.35%.

Set 4 — technique: universal PBM; form: double-stranded DNA, one strand shown; medium: in vitro; concentration: 600 nM; reading: higher = stronger binding
Target: Sal-like protein 4, full length isoform A (SALL4, Homo sapiens, UniProt Q9UJQ4, residues 1-1053)
Sequence of UniProt Q9UJQ4 (whole entry, looked up): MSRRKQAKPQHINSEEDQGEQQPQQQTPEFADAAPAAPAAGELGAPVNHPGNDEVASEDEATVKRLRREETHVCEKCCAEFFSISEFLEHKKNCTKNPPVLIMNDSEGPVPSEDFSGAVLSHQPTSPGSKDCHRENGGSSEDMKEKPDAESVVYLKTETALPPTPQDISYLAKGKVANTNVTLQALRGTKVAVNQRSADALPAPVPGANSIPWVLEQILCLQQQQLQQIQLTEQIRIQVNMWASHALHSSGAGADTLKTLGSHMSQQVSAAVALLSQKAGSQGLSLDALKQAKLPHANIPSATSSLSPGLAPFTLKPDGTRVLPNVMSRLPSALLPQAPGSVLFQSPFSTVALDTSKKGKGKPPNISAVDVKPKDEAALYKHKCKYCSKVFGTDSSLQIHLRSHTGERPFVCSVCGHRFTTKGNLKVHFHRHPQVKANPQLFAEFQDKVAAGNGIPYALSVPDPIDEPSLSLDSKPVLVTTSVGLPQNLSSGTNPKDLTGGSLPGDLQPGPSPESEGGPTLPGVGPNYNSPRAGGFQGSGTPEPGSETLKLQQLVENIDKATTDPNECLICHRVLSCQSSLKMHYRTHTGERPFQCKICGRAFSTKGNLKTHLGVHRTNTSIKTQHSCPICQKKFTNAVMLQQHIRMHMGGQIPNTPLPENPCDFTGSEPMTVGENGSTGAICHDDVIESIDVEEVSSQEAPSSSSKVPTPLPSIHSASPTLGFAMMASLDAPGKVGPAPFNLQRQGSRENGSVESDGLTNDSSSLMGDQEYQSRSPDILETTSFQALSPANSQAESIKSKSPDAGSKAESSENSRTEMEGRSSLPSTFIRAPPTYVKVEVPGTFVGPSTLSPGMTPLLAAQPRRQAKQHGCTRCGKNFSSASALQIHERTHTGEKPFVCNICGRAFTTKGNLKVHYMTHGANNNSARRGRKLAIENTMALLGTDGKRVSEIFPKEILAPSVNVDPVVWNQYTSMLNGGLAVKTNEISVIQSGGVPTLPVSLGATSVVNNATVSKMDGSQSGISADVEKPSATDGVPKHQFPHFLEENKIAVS
Notes: 8-mer, flanks averaged, mean of replicates
For `TAGCGGCA`, the E-score was -0.226.
`ATGGTCGG` has an E-score of -0.0955.
With `GGGCTAAC` the E-score was -0.244.
`ATTGGGCA` has an E-score of -0.0289.
The E-score of `CAACCCTC` is reported as -0.242.
For `GCCACCGA`, the E-score was -0.297.
The E-score of `TCACATCA` is reported as 0.149.
With `AAAGTTCC` the E-score was -0.128.

Further values, each from its own experiment
The viability of `COC(=O)[C@@H]1CC2=CC(=O)CC[C@]2(C)[C@@]23O[C@@H]2C[C@@]2(C)[C@@H](CC[C@@]24CCC(=O)O4)[C@H]13` is reported as 102% (HEK-293T/ACE2; concentration not given, 16 (unit not given); relative to: vehicle).
